Measured values pooled from the literature.
Compare with care: the assays were run in different laboratories. Numbers after ± are the reported error. In brackets after ≈: the same amount, converted by molar mass.

N#Cc1ccc(-c2ccc(-c3cccs3)s2)cc1F  mutant frequency (Salmonella enterica; TA1535; 20 µM, 48 h, together with: sodium azide co-exposure; baseline: sodium azide alone): 18%
Nc1ncnc2c1ncn2CCOCP(=O)(O)O  EC90 (hepatitis B virus; viral replication; HepG2.2.15): 2.9 ± 0.2 µM
O=Cc1cn(Cc2ccc(F)cc2)c2ccc([N+](=O)[O-])cc12  IC50 (Leishmania donovani; parasite growth, resazurin; THP-1; 24 h, intracellular, amastigote): > 10 µM
CCc1nc(N)nc(N)c1-c1ccc(Cl)cc1  ED50 (Trypanosoma brucei brucei; Alamar blue; Lister 427 bloodstream form; concentration not given, 10% fetal calf serum): 26.6 ± 0.7 µM
C[C@@H]1N[C@H](CCCCCCCCCCC2=C[C@@H](CCCCCCCCCC[C@@H]3CC[C@@H](O)[C@H](C)N3)[C@@H]3CCCN3C2)CC[C@H]1O  IC90 (Leishmania donovani; parasite growth; THP-1; intracellular, amastigote): 1.65 µg/mL
NC(=S)NNC(=O)/C=C/c1ccc(N)cc1  LC50 (Aedes aegypti; third instar larvae): 190 µg/mL (≈ 804 µM)
CSc1ccc2c(c1)N(CCC1CCCCN1C)c1ccccc1S2 (centres unmarked)  pseudovirus entry (coronavirus spike pseudovirus; luciferase reporter; ACE2-high cells; 20 µM, unit not given; baseline: untreated): 0.39 ± 0.08
CP(=O)(O)CCC(N)C(=O)O (centres unmarked)  herbicidal activity (Ipomoea hederacea; 500 g/ha, 13 days, IPOHE, post-emergence spray; baseline: untreated (0%), complete kill (100%)): 100%
c1ccc(CN2CCCNCCN(Cc3ccccc3)CCCNCC2)cc1  IC90 (Leishmania donovani; parasite growth, resazurin; 72 h, promastigote): 17.8 µM
CN(CC(=O)N(Cc1ccc(C2CCCCC2)cc1)c1ccc(C(=O)O)cc1)S(=O)(=O)c1c(F)c(F)c(F)c(F)c1F  IC90 (dengue virus type 2 New Guinea C; viral yield; single-cycle yield reduction): 2.7 ± 1 µM
tannic acid  cumulative mortality (viral haemorrhagic septicaemia virus; zebrafish; oral, 50 µg/fish/day, 15 days, dosed 3 days before challenge): 52.3 ± 4.2%
N#Cc1ccc(-c2ccc(-c3cccs3)o2)cc1F  mutant frequency (Salmonella enterica; TA1535; 20 µM, 48 h, together with: sodium azide co-exposure; baseline: sodium azide alone): 35%
O=Cc1cn(Cc2ccccc2)c2ccc([N+](=O)[O-])cc12  IC50 (Leishmania donovani; parasite growth, resazurin; THP-1; 72 h, intracellular, amastigote): 3.57 µM
O=C(O)CNCP(=O)(O)O  degradation rate per cell (Achromobacter sp.; MPS 12 A; 3 mM): -1.4e-21 mol/s/cell
CSc1ccc(OCc2ncc([N+](=O)[O-])n2C)cc1  susceptibility ratio (Leishmania donovani; macrophages, LdBOB nitroreductase-overexpressing amastigotes; baseline: overexpressing over wild type): > 15 fold
O=C(N/N=C/c1ccccc1)c1cc([N+](=O)[O-])cc([N+](=O)[O-])c1  MIC (Aspergillus niger; microbial growth, broth dilution; 7 days): 20 µM (≈ 6.27 µg/mL)
TFFRLFNRSFTGRRRRSVQWCA  biofilm growth (Streptococcus mutans; OD600; peptide, UA159, 4 h single-species biofilm; 128 µg/ml, 5 min exposure, OD600 read over 5 h): decreased
CN[C@@](C)(C[18F])C(=O)O  tracer uptake (DU-145 tumour model; host not given, blood; 30 min, tumour-bearing): 1.6 %ID/g
Polymyxin B  survival rate (Escherichia coli K1; ICR mice; i.p., 10 mg/kg, 1 h before infection, up to 96 h): 78%
CC(=O)OCC(CCn1cnc2cnc(N)nc21)COC(C)=O  LC50 (Aedes aegypti; third instar larvae): 240 µg/mL (≈ 747 µM)
CCCCCCCCCCCCCCCCCC(=O)N/N=C/c1ccccc1Cl  MIC (Aspergillus niger; microbial growth, broth dilution; 7 days): 51.3 µM (≈ 21.6 µg/mL)
N#Cc1ccc(-c2ccc(-c3cccs3)o2)c(F)c1  inhibition (Salmonella enterica; sodium azide mutagenicity; TA1535; 10 µM, 48 h, together with: sodium azide 2 µg/plate after pre-exposure): 80%
COc1ccc(-c2[nH]c3nc(N)[nH]c(=O)c3c2C#N)cc1  ED50 (Trypanosoma brucei brucei; Alamar blue; Lister 427 bloodstream form; concentration not given, 10% fetal calf serum): 274 ± 7.5 µM
CCN(CC)CCNC(=O)c1cc(S(C)(=O)=O)ccc1OC  pseudovirus entry (coronavirus spike pseudovirus; luciferase reporter; ACE2-high cells; 20 µM, unit not given; baseline: untreated): 0.1 ± 0.01
CC(=O)N[C@H]1[C@H]([C@H](O)[C@H](O)CO)OC(C(=O)O)=C[C@@H]1N=C(N)N  antiviral activity (human respiratory syncytial virus; BEAS-2B, A2-L19F-renilla; concentration not given): inactive
N=C(N)c1ccc(-c2ccc(-c3cccs3)o2)cc1F  mutant frequency (Salmonella enterica; TA1535; 20 µM, 48 h, together with: sodium azide after pre-exposure; baseline: sodium azide alone): 33%
CCc1c(C)nc(-n2nc(C)cc2NC(=O)c2ccccc2SC)[nH]c1=O  LD50 (Leishmania amazonensis; intracellular amastigotes; 72 h, washout): 650 ± 200 nM
O=C1C=C(N(Cc2ccc(Cl)nc2)CC(F)F)CO1  resistance ratio (Bemisia tabaci; leaf-dip bioassay; biotype B; 72 h, adults; baseline: LC50 over susceptible strain): 3
CS(=O)(=O)CC(=O)N1CC2(C1)OCc1cc(C3=NO[C@@](c4cc(Cl)c(F)c(Cl)c4)(C(F)(F)F)C3)ccc12  reduction in live tick counts (Ixodes scapularis; dog; oral, 2 mg/kg, day 29, dosed 21 days pre-infestation; baseline: placebo): 86.3%
CN1CCN2CCN(CC1)CCN(Cc1ccccc1)CC2  IC90 (Leishmania donovani; parasite growth; THP-1 macrophages; intracellular amastigotes): > 20 µM
O=Cc1cn(Cc2cccc(Cl)c2)c2ccc([N+](=O)[O-])cc12  IC50 (Leishmania major; parasite growth, resazurin; THP-1; 72 h, intracellular, amastigote): 14 µM
CCC(C)(C)C(=O)O[C@H]1C[C@@H](C)C=C2C=C[C@H](C)[C@H](CC[C@@H]3C[C@@H](O)CC(=O)O3)[C@H]21  EC90 (hepatitis B virus; viral replication; HepG2.2.15): 8.6 ± 0.8 µM
CO/C(=C/C(N)=O)[C@H](C)[C@H](/C=C/c1csc(-c2csc([C@@H](C)/C=C/C=C/C(C)C)n2)n1)OC  IC50 (Wickerhamomyces anomalus; O2 uptake, inhibitor; mitochondria; together with: succinate 15 mM): 0.073 µM
C[C@H](Cn1cnc2c(N)ncnc21)OCP(=O)(O)O  inhibition (human alphaherpesvirus 2; virus production, plaque reduction; human monocytes/macrophages; 20 µg/mL, 6 days): 98%
N#Cc1ccc(-c2ccc(-c3ccco3)o2)c(F)c1  inhibition (Salmonella enterica; sodium azide mutagenicity; TA1535; 10 µM, 48 h, together with: sodium azide 2 µg/plate co-exposure): 58%
CN1CCCN2CCN(CCCN(Cc3ccccc3)CC2)CC1  IC90 (Leishmania donovani; parasite growth, resazurin; 72 h, amastigote): > 20 µM
STFFRLFNRSFTQGRRRRSVQWCA  biofilm growth (Streptococcus mutans; OD600; peptide, UA159, 4 h single-species biofilm; 128 µg/ml, 5 min exposure, OD600 read over 5 h): decreased
C=CC1=C(C)/C(=C/c2[nH]c(Cc3[nH]c(/C=C4\NC(=O)C(C)=C4C=C)c(C)c3CCC(=O)O)c(CCC(=O)O)c2C)NC1=O  lowest effective concentration (hepatitis C virus; viral replication, RT-PCR; Huh5-15 NS replicon; 48 h): 200 µM
N#Cc1ccc(-c2ccc(-c3ccco3)o2)cc1F  mutant frequency (Salmonella enterica; TA1535; 20 µM, 48 h, together with: sodium azide co-exposure; baseline: sodium azide alone): 24%
CO/C=C(/C(=O)OC)c1ccccc1Oc1cc(Oc2ccccc2C#N)ncn1  lowest effective concentration (Zymoseptoria tritici; disease control, glasshouse foliar spray; Triticum aestivum; disease control 100%): < 1.8 µM
C[C@@]1(O)[C@H](O)[C@@H](CO)O[C@H]1n1ccc(=O)[nH]c1=O  EC90 (hepatitis C virus; viral replication, luciferase reporter; genotype 1b Con1 replicon; 72 h): 55.3 µM

Repeated from above:
CN1CCN2CCN(CC1)CCN(Cc1ccccc1)CC2  IC90 (Leishmania donovani; parasite growth; THP-1 macrophages; intracellular amastigotes): > 20 µM
CO/C(=C/C(N)=O)[C@H](C)[C@H](/C=C/c1csc(-c2csc([C@@H](C)/C=C/C=C/C(C)C)n2)n1)OC  IC50 (Wickerhamomyces anomalus; O2 uptake, inhibitor; mitochondria; together with: succinate 15 mM): 0.073 µM
O=Cc1cn(Cc2ccc(F)cc2)c2ccc([N+](=O)[O-])cc12  IC50 (Leishmania donovani; parasite growth, resazurin; THP-1; 24 h, intracellular, amastigote): > 10 µM
Nc1ncnc2c1ncn2CCOCP(=O)(O)O  EC90 (hepatitis B virus; viral replication; HepG2.2.15): 2.9 ± 0.2 µM
CS(=O)(=O)CC(=O)N1CC2(C1)OCc1cc(C3=NO[C@@](c4cc(Cl)c(F)c(Cl)c4)(C(F)(F)F)C3)ccc12  reduction in live tick counts (Ixodes scapularis; dog; oral, 2 mg/kg, day 29, dosed 21 days pre-infestation; baseline: placebo): 86.3%
CP(=O)(O)CCC(N)C(=O)O (centres unmarked)  herbicidal activity (Ipomoea hederacea; 500 g/ha, 13 days, IPOHE, post-emergence spray; baseline: untreated (0%), complete kill (100%)): 100%
